Published values of several laboratories.
Each line is one published result; not all experiments were run side by side. Values joined by “and” are separate records of one study, mostly repeats; a detail may differ. ± gives the spread as reported.
B1: FABP4; sequence looked up; chain CDAFVGTWKLVSSENFDDYMKEVGVGFATRKVAGMAKPNMIISVNGDLVTIRSESTFKNTEISFKLGVEFDEITADDRKVKSIITLDGGALVQVQKWDGKSTTIKRKRDGDKLVVECVMKGVTSTRVYERA
B2: IκBα C308F; sequence looked up; chain MFQAAERPQEWAMEGPRDGLKKERLLDDRHDSGLDSMKDEEYEQMVKELQEIRLEPQEVPRGSEPWKQQLTEDGDSFLHLAIIHEEKALTMEVIRQVKGDLAFLNFQNNLQQTPLHLAVITNQPEIAEALLGAGCDPELRDFRGNTPLHLACEQGCLASVGVLTQSCTTPHLHSILKATNYNGHTCLHLASIHGYLGIVELLVSLGADVNAQEPCNGRTALHLAVDLQNPDLVSLLLKCGADVNRVTYQGYSPYQLTWGRPSTRIQQQLGQLTLENLQMLPESEDEESYDTESEFTEFTEDELPYDDFVFGGQRLTL

| Molecule | target or system | test | test system | conditions | scale | quantity | result |
| --- | --- | --- | --- | --- | --- | --- | --- |
| YLGEWVAQL | Jurkat T cells expressing 1G4 TCR | NFAT-eGFP reporter, fluorescence microscopy | peptide | concentration not given, HLA-A*02:01 NY-ESO system | – | reporter activation | 0.00283% |
| epoetin alfa | UT7/EPO | microarray, item: CISH (probe 221223_x_at) | – | 5 U/mL, 90 min, together with: SCF 10 nM | reference: vehicle | mRNA level | 5.4 fold |
| KMTMR | THP-1 | Western blot | peptide | 0.5 µM, 3 days, unit not given, together with: WNT3A | reference: WNT3A alone | active β-catenin level | 1.3 |
| lawsone | HepG2 | MTT | – | – | reference: MRC5 IC50 over HepG2 IC50 | selectivity index | 1.24 |
| ALLQWTDQV | Jurkat T cells expressing 1G4 TCR | NFAT-eGFP reporter, flow cytometry | peptide | concentration not given, HLA-A*02:01 NY-ESO system | – | reporter activation | 20.7% |
| GSGAGSETKM | human SCRIB PDZ3-4 tandem (MBP fusion) | automated holdup | peptide, purified PDZ protein | concentration not given, unit not given | reference: biotin control resin, higher = stronger binding | binding intensity | -0.0477 |
| B1 (FABP4) | mouse bone marrow macrophages | TRAP staining | – | 25 ng/mL, 4 days, together with: M-CSF and RANKL | – | osteoclast number | 192 and 202 and 172 and 205 |
| evodiamine | K562 | cell proliferation | – | – | – | IC50 | 1.34 ± 0.42 µM |
| ALLCWVTQV | Jurkat T cells expressing 1G4 TCR | NFAT-eGFP reporter, fluorescence microscopy | peptide | concentration not given, HLA-A*02:01 NY-ESO system | – | reporter activation | 0.0251% |
| vecabrutinib | HEK-293T ATF4-FLuc reporter | reporter gene, activator, qHTS | – | – | – | EC50 | 6.04 µM |
| MTVCNASQRQAHAQATAVSL | H1355 lung adenocarcinoma | phage binding output/input | peptide | – | reference: control phage | selectivity ratio | 2.8 ± 1.9 |
| bis(2,4-dimethylpyridine)dichloroplatinum(II) | A549 | cell viability, MTT | – | 48 h | – | IC50 | 10.5 µM |
| Cdk2 Inhibitor III | HeLa expressing Ub(G76V)-GFP | Ub(G76V)-GFP degradation, inhibitor, cycloheximide chase | – | 12 µM | – | inhibition | 0% |
| ALLANHEELFQT | CCA-156 | multimer binding | peptide | 150 µM, 30 min, 4 °C, unlabelled competitor, together with: 5 µM Cy5.5-labelled multimer | – | fluorescence signal | decreased |
| monensin sodium | MCF-10A | CellTiter-Glo | – | concentration not given, replicate A | reference: normalised luminescence | viability | 83.4% |
| SLLEWISQV | Jurkat T cells expressing 1G4 TCR | NFAT-eGFP reporter, fluorescence microscopy | peptide | concentration not given, HLA-A*02:01 NY-ESO system | – | reporter activation | 0.0416% |
| QGRWDHETIV | human SCRIB PDZ3-4 tandem (MBP fusion) | automated holdup | peptide, crude extract | concentration not given, corrected by standard peak, unit not given | reference: biotin control resin, higher = stronger binding | binding intensity | 0.596 |
| verteporfin | BT-16 | cell viability, MTT | – | 10 µM, 72 h | – | inhibition | 88.9% |
| GLP-1(7-37) | INS-1 | RT-qPCR, item: Fos mRNA | – | 1 h | – | EC50 | 100 µM |
| GLAQWIAGA | Jurkat T cells expressing 1G4 TCR | NFAT-eGFP reporter, fluorescence microscopy | peptide | concentration not given, HLA-A*02:01 NY-ESO system | – | reporter activation | 0.01% |
| maraviroc | HBMEC | gene expression, qPCR | – | 2.5 µM, 24 h, together with: HIV infection | reference: HIV-infected cells, increase | mRNA level | 21 fold |
| B2 (IκBα C308F) | IκBα/IκBβ/IκBε knockout MEF, retro-transduced IκBα | Western blot | – | concentration not given, 0 (unit not given), together with: TNFα 20 ng/mL | reference: time zero | IκBα protein level | 100% |
| GLAQWLGHV | Jurkat T cells expressing 1G4 TCR | NFAT-eGFP reporter, fluorescence microscopy | peptide | concentration not given, HLA-A*02:01 NY-ESO system | – | reporter activation | 0.00539% |
| colistin | Morganella morganii | broth microdilution | clinical isolate RKI-No 659/13 | – | – | MIC | > 64 µg/mL |
| chidamide | HEK-293T ATF4-FLuc reporter | reporter gene, activator, qHTS | – | – | – | EC50 | 2.02 µM |
| SLLQWVSMV | Jurkat T cells expressing 1G4 TCR | NFAT-eGFP reporter, flow cytometry | peptide | concentration not given, HLA-A*02:01 NY-ESO system | – | reporter activation | 0.24% |
| Peginesatide | UT7/EPO | tyrosine phosphorylation, LC-MS/MS phosphoproteomics, GluC, item: VAV1 tyrosine 844 | – | 10 nM, 15 min, together with: 10 U/mL EPO | reference: vehicle | phosphorylation level | 3.7 fold |
| SLLEWVTQV | Jurkat T cells expressing 1G4 TCR | NFAT-eGFP reporter, fluorescence microscopy | peptide | concentration not given, HLA-A*02:01 NY-ESO system | – | reporter activation | 0.011% |
| Ac-LRKLRKRLLRDWLKAFYDKVAEKLKEAF-NH2 (N-acetyl, C-amide) | HepG2 | – | peptide, medium | 20 µg/mL, 3 h | – | apoA-I in preβ-HDL region | 99% |

Excerpt of the above:
| Molecule | target or system | test | test system | conditions | scale | quantity | result |
| --- | --- | --- | --- | --- | --- | --- | --- |
| verteporfin | BT-16 | cell viability, MTT | – | 10 µM, 72 h | – | inhibition | 88.9% |
| GLAQWIAGA | Jurkat T cells expressing 1G4 TCR | NFAT-eGFP reporter, fluorescence microscopy | peptide | concentration not given, HLA-A*02:01 NY-ESO system | – | reporter activation | 0.01% |
| GLAQWLGHV | Jurkat T cells expressing 1G4 TCR | NFAT-eGFP reporter, fluorescence microscopy | peptide | concentration not given, HLA-A*02:01 NY-ESO system | – | reporter activation | 0.00539% |
| lawsone | HepG2 | MTT | – | – | reference: MRC5 IC50 over HepG2 IC50 | selectivity index | 1.24 |
| bis(2,4-dimethylpyridine)dichloroplatinum(II) | A549 | cell viability, MTT | – | 48 h | – | IC50 | 10.5 µM |
